Assay results of several laboratories.
Compare with care: the assays were run in different laboratories. ± marks the error that the study gave.
Target: Mitogen-activated protein kinase 8 (MAPK8, Homo sapiens, UniProt P45983)
Sequence of UniProt P45983 (whole entry, looked up): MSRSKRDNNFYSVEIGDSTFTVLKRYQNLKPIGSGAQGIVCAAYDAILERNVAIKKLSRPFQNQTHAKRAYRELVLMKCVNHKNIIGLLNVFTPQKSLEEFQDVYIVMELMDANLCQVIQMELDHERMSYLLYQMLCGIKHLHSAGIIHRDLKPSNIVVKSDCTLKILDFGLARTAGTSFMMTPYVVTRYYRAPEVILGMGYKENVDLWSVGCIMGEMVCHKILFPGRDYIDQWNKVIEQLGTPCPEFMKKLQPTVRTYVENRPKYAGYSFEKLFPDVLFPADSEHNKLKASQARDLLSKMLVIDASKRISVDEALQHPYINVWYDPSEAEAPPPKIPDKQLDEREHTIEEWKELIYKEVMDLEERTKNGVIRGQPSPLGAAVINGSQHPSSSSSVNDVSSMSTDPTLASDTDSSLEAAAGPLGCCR

test = kinase activity, inhibitor, radiometric; conditions = pH 7.5, 30 °C, with: GST-c-Jun substrate; measurement = IC50; value = 2200 ± 25 µM; SMILES = CC(C)C[C@@H](NC(=O)[C@@H](Cc1ccccc1)NC(=O)[C@H]1CCCN1C(=O)[C@@H](CCC(N)=O)NC(=O)[C@H](NC(=O)[C@H]1CCCN1C(=O)[C@@H](CCCNC(=N)N)NC(=O)[C@@H](CO)NC(=O)[C@@H](CCC(N)=O)NC(=O)[C@@H](CC(=O)O)NC(=O)[C@H](N)[C@H](C)O)C(C)C)C(=O)N[C@H](CC(N)=O)C(=O)N[C@H](CC(C)C)C(=O)N[C@@H](C(=O)N[C@@H](C(=O)N1CCC[C@@H]1C(=O)N[C@H](CCCNC(=N)N)C(=O)N[C@H](CCCCN)C(=O)N1CCC[C@@H]1C(=O)N[C@H](CCCNC(=N)N)C(N)=O)[C@H](C)O)[C@H](C)O
test = target engagement, NanoBRET; system = HEK293; conditions = 2 h, with: tracer K-5; measurement = EC50; value = 417 ± 38 nM; SMILES = Cc1cc(NC(=O)c2cccc(N)c2)ccc1Nc1nccc(-c2cccnc2)n1
test = ligand displacement, FP; measurement = Ki; value = 7.4 µM; SMILES = COC(=O)C1(C)C=C(C(=O)OC(C)(C)C)C(=O)CC1 (centres unmarked)
test = enzyme activity, inhibitor, TR-FRET; measurement = IC50; value = 1.01 µM; SMILES = Cc1cc(NC(=O)c2cccc(-n3cc(NC(=O)Nc4ccccc4)cn3)c2)ccn1
test = kinase activity, inhibitor, SOX fluorogenic; conditions = pH 7.5, with: ATP 1 mM; measurement = IC50; value = 1.1 µM; SMILES = CC(C)C[C@H](NC(=O)[C@H](CCCCN)NC(=O)[C@H](C)NC(=O)[C@H](CCCNC(=N)N)NC(=O)[C@H](CCCNC(=N)N)NC(=O)[C@H](Cc1c[nH]cn1)NC(=O)[C@H](CCCCN)NC(=O)[C@H](CCC(=O)O)NC(=O)[C@H](C)NC(=O)[C@@H](N)Cc1ccc(O)cc1)C(=O)N[C@@H](CCCNC(=N)N)C(=O)N[C@@H](CC(C)C)C(=O)N[C@@H](Cc1ccc(O)cc1)C(=O)N[C@@H](CC(C)C)C(=O)N[C@@H](CCC(=O)O)C(=O)N[C@@H](CCC(N)=O)C(=O)O
test = ligand displacement, FP; measurement = Ki; value = 4.8 µM; SMILES = COC(=O)C1(Cc2ccccc2)C=C(C(=O)OC(C)(C)C)C(=O)CC1 (centres unmarked)
test = enzyme activity, inhibitor; measurement = IC50; value = 1.1 ± 0.1 µM; SMILES = CC(C)C[C@H](NC(=O)[C@H](CC(N)=O)NC(=O)[C@H](CC(C)C)NC(=O)[C@@H](NC(=O)[C@@H](NC(=O)[C@@H]1CCCN1C(=O)[C@H](CCCNC(=N)N)NC(=O)[C@H](CCCCN)NC(=O)[C@@H]1CCCN1C(=O)[C@H](CCCNC(=N)N)NC(=O)[C@H](CCCNC(=N)N)NC(=O)[C@H](CCCNC(=N)N)NC(=O)[C@H](CCCNC(=N)N)NC(=O)[C@H](CCC(N)=O)NC(=O)[C@H](CCCNC(=N)N)NC(=O)[C@H](CCCNC(=N)N)NC(=O)[C@H](CCCCN)NC(=O)[C@H](CCCCN)NC(=O)[C@H](CCCNC(=N)N)NC(=O)CNC(=O)[C@@H](N)Cc1ccc(O)cc1)[C@@H](C)O)[C@@H](C)O)C(=O)N[C@@H](Cc1ccccc1)C(N)=O
test = enzyme activity, inhibitor, TR-FRET; measurement = IC50; value = 1.15 µM; SMILES = Cc1cc(NC(=O)c2cccc(-n3cc(NC(=O)Nc4ccc(F)cc4)cn3)c2)ccn1

For quick reference, copied from above:
test = target engagement, NanoBRET; system = HEK293; conditions = 2 h, with: tracer K-5; measurement = EC50; value = 417 ± 38 nM; SMILES = Cc1cc(NC(=O)c2cccc(N)c2)ccc1Nc1nccc(-c2cccnc2)n1
